Assay results collected from several papers.
Compare with care: the assays were run in different laboratories. Several values in a cell are separate wells, animals, samples, runs or records. ± gives the spread as reported.
Sequence of UniProt P10635 (whole entry, looked up): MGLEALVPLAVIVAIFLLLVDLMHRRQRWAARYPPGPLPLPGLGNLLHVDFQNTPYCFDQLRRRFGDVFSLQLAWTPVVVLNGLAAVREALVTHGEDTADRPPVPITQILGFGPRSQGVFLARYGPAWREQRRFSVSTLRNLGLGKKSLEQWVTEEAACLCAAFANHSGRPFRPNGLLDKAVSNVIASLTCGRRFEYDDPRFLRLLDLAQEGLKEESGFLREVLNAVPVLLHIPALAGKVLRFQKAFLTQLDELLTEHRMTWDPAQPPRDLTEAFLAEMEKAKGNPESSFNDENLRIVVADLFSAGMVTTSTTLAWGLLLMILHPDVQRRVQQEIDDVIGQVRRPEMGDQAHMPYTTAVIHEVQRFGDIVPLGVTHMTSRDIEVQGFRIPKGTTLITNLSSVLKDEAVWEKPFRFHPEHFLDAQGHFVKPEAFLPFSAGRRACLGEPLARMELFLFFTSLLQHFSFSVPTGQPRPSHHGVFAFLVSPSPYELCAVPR

CN(C)S(=O)(=O)c1ccc(S(=O)(=O)N2CCC(n3c(=O)[nH]c4ccccc43)CC2)cc1 — body weight (mouse; intraperitoneal, 6 mg/kg, 3 day; reference: day 0): 95.4%
CN1CCCNC(=O)c2cccc(c2)C(=O)NCCCN(C)CCCNc2cccc3c2C(=O)c2cccc(c2C3=O)NCCC1 — body weight (mouse xenograft model; dose not given, day 8, group mean): 26.4 g
Cc1c(Cc2cccc(OC(C)(C)C(=O)O)c2)c2ccc(C(=O)N[C@@H](C)c3cccc(C#N)c3)cc2n1C — half-life (human liver microsomes): 0.964 h
CNc1cc(N)c(C(N)=O)cn1 — concentration at time (Han Wistar rats, male, plasma; oral, 30 mg/kg, 4.00 h): 3.36 µM
C=CC(=O)Nc1cc(Nc2nccc(-c3cn(C)c4ccccc34)n2)c(OC)cc1N(C)CCNC — recovery (storage stability; human dried blood spots; 24 h, on ice, LLOQ level): 85.2%
CNC(=O)C1CCCN(C(=O)C2CC3CCC2N3C(=O)[C@@H]2C[C@@H](O)CN2C(=O)NCc2cccc(Cl)c2F)C1 (mixture of isomers) — dextrorphan formation (Cytochrome P450 2D6 (CYP2D6, Homo sapiens, UniProt P10635); enzyme activity, inhibitor, time-dependent inhibition; 0.617 µM, preincubated with NADPH): 119 ng/mL
CN1CCC[C@]1(C)/C=C/S(=O)(=O)NC(=O)Nc1c2c(cc3c1C(O)CC3)CCC2 (stereo partly shown) — Cmax at second steady-state dose (human, plasma; oral, 50 mg twice daily of parent drug, day 14, metabolite of dosed drug): 9800 ng/mL
OC1(C(F)(F)F)CCN(c2nc(Nc3ccnc(C(F)(F)F)c3)nc(-c3cccc(C(F)(F)F)n3)n2)C1 (stereo not shown) — Tmax (Sprague-Dawley rat, both sexes, plasma; oral gavage, 5 mg/kg, day 14): 5 ± 1.1 h
CN1C(=O)[C@@H](Cc2ccc(O)c(I)c2)NC(=O)CNC(=O)[C@H](Cc2ccc3ccccc3c2)NC(=O)[C@H](CCCNC(=N)N)NC(=O)[C@H]1CCCNC(=O)c1ccc(CNC(=O)CN2CCN(CC(=O)O)CCN(CC(=O)O)CCN(CC(=O)O)CC2)cc1 [lutetium-177 labelled] — total absorbed dose (2; human, extrapolated from mouse, Urinary bladder wall): 0.00086 mGy/MBq
O=C(Nc1cnccc1-c1ccc([18F])cc1)c1ccnc(NC(=O)C2CC2)c1 — SUV (ex vivo gamma counting; GSK-3β transgenic mice, late-stage, cortex; intravenous, 120 min, mean, P-gp inhibitor pretreatment, added: tariquidar 15 mg/kg iv): 0.22
CC(C)Cc1ccc(CN2CCCC(NC(=O)c3nn(C)c(=O)c4ccccc34)C2)cc1 (stereo not shown) — translation activity (Trypanosoma cruzi; reporter mRNA translation, inhibitor, item: Renilla luciferase mRNA; cell-free extract; concentration not given, test 2; reference: positive over negative control): 88.8% and 92%
CCC1CNC(CC)CN(C(C(=O)[O-])c2ccc(C(=O)[O-])cc2)C(CC)CN(CC(=O)[O-])C(CC)CN1.[Mn+2] (stereo not shown) — Mn uptake (ICP-MS; BALB/c mice, kidney; intravenous, 0.05 mmol/kg, 5 min; reference: injected dose): 5.16 ± 1.41%
C=C(NC(=O)c1csc(-c2nc3c(cc2O)-c2nc(cs2)C(=O)NC(C(C)O)C(=O)NC(=C(C)OC)c2nc(cs2)C(=O)NC2c4nc(cs4)C(=O)NC(COC(=O)c4c5c6c(cccc6n4O)COC(=O)C(OC4CC(C)(O)C(N(C)C)C(C)O4)C2OC5)c2nc-3cs2)n1)C(N)=O (stereo not shown) — half-life (ICR mice, Streptococcus pneumoniae ATCC 49169 infected, immunocompromised, blood; intravenous, 16 mg/kg/day three times daily): 2.53 h
Cc1nc(N)nc2c1C(=O)N[C@@H](c1ccc(F)cc1-c1cccc(O[11CH3])n1)C2 — radioactivity uptake (ex vivo biodistribution; mouse, U87 subcutaneous xenograft, tumour; dose not given, 60 min, vehicle pretreatment baseline): 3.7 ± 1.8 %ID
O=C(Nc1cccc(CO)c1)c1cc(-c2ccccc2)n(-c2ccccc2)n1 — depletion (human liver microsomes; 4 h): < 15%
C[C@]12CCC(O)CC1=CCC1C2CC[C@]2(C)/C(=N\NC(N)=S)CCC12 (stereo partly shown) — translation activity (Trypanosoma cruzi; reporter mRNA translation, inhibitor, item: Renilla luciferase mRNA; cell-free extract; concentration not given, test 2; reference: positive over negative control): 160% and 103%
CCCCN1C(=O)c2cccc3c(NCCCCCN4CCOCC4)ccc(c23)C1=O — fluorescence lifetime (dioxane): 10.1 ns
Cc1nn(-c2nc3c(F)cc(F)cc3s2)c(O)c1C(c1ccc(C(F)(F)F)cc1)c1c(C)nn(-c2nc3c(F)cc(F)cc3s2)c1O — plasma concentration (ICR mouse; intravenous, 5 mg/kg, 3 min): 8540 ng/mL and 21600 ng/mL and 11700 ng/mL
O=C(NS(=O)(=O)c1cccs1)c1cc2ccccc2n1Cc1ccc(Br)c2ccccc12 — plasma concentration (Sprague-Dawley rat, male; intravenous, dose not given, 4 h): 22.6 ng/mL

For quick reference, copied from above:
Cc1nn(-c2nc3c(F)cc(F)cc3s2)c(O)c1C(c1ccc(C(F)(F)F)cc1)c1c(C)nn(-c2nc3c(F)cc(F)cc3s2)c1O — plasma concentration (ICR mouse; intravenous, 5 mg/kg, 3 min): 8540 ng/mL and 21600 ng/mL and 11700 ng/mL
CN1CCCNC(=O)c2cccc(c2)C(=O)NCCCN(C)CCCNc2cccc3c2C(=O)c2cccc(c2C3=O)NCCC1 — body weight (mouse xenograft model; dose not given, day 8, group mean): 26.4 g
